Assay results gathered from unrelated publications.
Each line is one published result; not all experiments were run side by side. Numbers after ± are the reported error.
Chain of UniProt P10635 (whole entry, looked up): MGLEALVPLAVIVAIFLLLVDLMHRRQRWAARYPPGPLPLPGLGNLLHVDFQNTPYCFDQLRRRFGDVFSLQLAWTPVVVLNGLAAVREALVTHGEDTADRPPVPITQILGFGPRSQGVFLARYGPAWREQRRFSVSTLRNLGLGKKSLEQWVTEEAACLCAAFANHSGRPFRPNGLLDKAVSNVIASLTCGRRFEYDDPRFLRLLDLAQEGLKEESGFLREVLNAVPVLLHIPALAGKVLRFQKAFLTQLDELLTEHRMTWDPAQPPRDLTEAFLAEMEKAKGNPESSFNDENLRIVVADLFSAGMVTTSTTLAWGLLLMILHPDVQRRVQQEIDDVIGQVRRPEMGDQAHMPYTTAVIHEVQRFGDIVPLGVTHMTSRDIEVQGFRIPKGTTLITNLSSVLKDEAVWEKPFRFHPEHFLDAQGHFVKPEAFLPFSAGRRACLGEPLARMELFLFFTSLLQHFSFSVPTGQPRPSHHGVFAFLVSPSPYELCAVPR

For C=CC(=O)Nc1cc(Nc2nccc(-c3cn(C)c4ccccc34)n2)c(OC)cc1N(C)CCNC, the recovery was 57.7% (human plasma; 24 h, storage stability, LLOQ sample).
Under “log2 fold change”, COC1CN([C@H]2CC[C@H]([C@@]3(C)Oc4c(Cl)cc(C(=O)NCc5c(SC)cc(C)[nH]c5=O)c(C)c4O3)CC2)C1 is recorded as 0.622 (RNA-seq, measured: NDRG2 mouse homolog; mouse, HT-1376 xenograft, whole blood; dose not given; baseline: vehicle).
The haemolysis of CC(C)[C@@H]1NC(=O)[C@@H](CCCNC(=N)N)NC(=O)[C@H]([C@@H](C)O)NC(=O)[C@@H](CCCN)NC(=O)[C@H](Cc2ccccc2)NC(=O)[C@@H](Cc2cccc(F)c2)NC1=O is reported as less than 10% (haemolysis; human; 100 µM).
CCC(=O)N(C)c1ccc(Cl)c(Cl)c1 gave a plasma concentration of 131 ng/mL (female C57BL/6 mice; oral, 10 mg/kg, 0.5 h).
Nc1nc(-c2ccccc2)nc2[nH]nc(Nc3ccc(Cl)cc3)c12 has a recovery of 61% (plasma; time not given, plasma protein binding).
For C=C(NC(=O)c1csc(-c2nc3c(cc2O)-c2nc(cs2)C(=O)NC(C(C)O)C(=O)NC(=C(C)OC)c2nc(cs2)C(=O)NC2c4nc(cs4)C(=O)NC(COC(=O)c4c5c6c(cccc6n4O)COC(=O)C(OC4CC(C)(O)C(N(C)C)C(C)O4)C2OC5)c2nc-3cs2)n1)C(N)=O (stereo not shown), the Cmax was 2600 ± 625 ng/mL (Sprague-Dawley rat, both sexes, plasma; intravenous infusion, 2 mg/kg single dose).
For Cc1ccc(OCC(=O)N(Cc2cccs2)c2ccn[nH]2)cc1, the remaining compound was 1.16% (pooled rabbit liver microsomes; 10 µM, 20 min; baseline: time 0).
For COc1ccc2c(c1)CN(C(=O)CCN1CCC(Cc3ccccc3)CC1)CCS2, “maximum QTcF change” read 62.4 ms (paroxysmal AF patients; oral, 540 mg, 210 min; baseline: baseline).
With CCN(CC)CC#CCNc1ccnc2cc(Cl)ccc12 the revertants was 15 revertants/well (Salmonella typhimurium; mini-Ames test; TA100; 500.0 µg/well, with rat liver S9).
Under “molar extinction coefficient”, CCCCN1C(=O)c2cccc3c(NCCCN4CCOCC4)ccc(c23)C1=O is recorded as 4600 M⁻¹ cm⁻¹ (EtOAc).
With COCC1CN(C2CCN(c3cc(OC)c(Nc4ncc(Br)c(Nc5ccc6c(c5P(C)(C)=O)OCCO6)n4)cc3C)CC2)C1 the Tmax was 4.01 h (EGFR-mutant NSCLC patients, plasma; oral, 150 mg single dose, median).
Cc1ncsc1-c1ccc(C(C)NC(=O)C2CC(O)CN2C(=O)C(NC(=O)CCCCCCCCCCN2CCCC(Nc3ncc(Cl)c(Nc4ccccc4S(=O)(=O)C(C)C)n3)C2)C(C)(C)C)cc1 (stereo not shown): “log2 fold change” -1.41 (22Rv1; RNA-seq, measured: RAD51D mRNA; concentration not given; baseline: DMSO).
Cc1cccc(Cn2ncc3c4cc(F)c(CN(C)C)cc4n(C)c3c2=O)n1 gave a Vd/F of 49.3 L/kg (Sprague-Dawley rat, plasma; oral, 10 mg/kg).
For N[C@@H](CNC(=O)N[C@@H](CS)C(=O)NCC(=O)O)C(=O)O, “brain-to-plasma AUC ratio” read 0.63 ± 0.4 (C57BL/6 mouse; intraperitoneal, dose not given).
The SUV of O=C(Nc1cnccc1-c1ccc([18F])cc1)c1ccnc(NC(=O)C2CC2)c1 is reported as 6.42 (ex vivo gamma counting; GSK-3β transgenic mice, late-stage, urine; intravenous, 120 min, mean, P-gp inhibitor pretreatment, together with: tariquidar 15 mg/kg iv).
O=C1C2CC3CC1CC(C(=O)N1CCN(c4ccc([N+](=O)[O-])c5ncccc45)CC1)(C3)C2: “revertant colony count” 1 colonies/well (Salmonella typhimurium; Ames test; TA1535; 0.05 µg/well, with S9 activation).
C=CC(=O)Nc1cccc(Cn2ncc3cnc(Nc4cnn(CCOC)c4)nc32)c1: “percent of control” 100% (NEK4 human; binding, KINOMEscan; 100 nM; lower = stronger binding).
For CCCCN1C(=O)c2cccc3c(NCCN4CCOCC4)ccc(c23)C1=O, “molar extinction coefficient” read 6970 M⁻¹ cm⁻¹ (EG).
With C=CC(=O)Nc1cc(Nc2nccc(-c3c[nH]c4ccccc34)n2)c(OC)cc1N(C)CCN(C)C the recovery was 78.5% (storage stability; human dried blood spots; 24 h, on ice, medium QC level).
With CC[C@H](C)[C@H](NC(=O)C[C@H](NC(=O)CN1CCN2CCN(CC1)CC(=O)[O][Al]([18F])[O]C(=O)C2)C(=O)O)C(=O)N[C@H]1CCc2cccc3c2N(C1=O)[C@H](C(=O)NCc1cn[nH]n1)C3 the tracer uptake was 4.27 %ID/g (MC-38 tumour model; host not given, kidney; 30 min, tumour-bearing).
The revertant colonies of O=C1NC2(CC2)COc2ncc(F)cc2[C@H]2COCCN2c2ccn3ncc1c3n2 is reported as 81 ± 5 revertants/plate (Salmonella typhimurium; Ames test; TA100; 150 µg/plate, 48 h, together with: without S9).
For OC1(C(F)(F)F)CCN(c2nc(Nc3ccnc(C(F)(F)F)c3)nc(-c3cccc(C(F)(F)F)n3)n2)C1 (stereo not shown), the Cmax was 361 ± 40.3 ng/mL (Sprague-Dawley rat, both sexes, plasma; oral gavage, 5 mg/kg, day 1).
CC[C@H](C)[C@@H]1NC(=O)[C@H](Cc2ccc(O)cc2)NC(=O)CCCSC[C@@H](C(=O)N(CC(=O)N[C@@H](CC(C)C)C(=O)NCC(N)=O)Cc2ccc(F)cc2)NC(=O)[C@H](CC(N)=O)NC(=O)[C@H](CCC(N)=O)NC1=O gave an AUC(0-t) of 0.088 ng·h/mL (human, plasma; intranasal, 400 µg, single dose).
The dextrorphan formation of CNC(=O)C1CCCN(C(=O)C2CC3CCC2N3C(=O)[C@@H]2C[C@@H](O)CN2C(=O)NCc2cccc(Cl)c2F)C1 (mixture of isomers) is reported as 143 ng/mL (Cytochrome P450 2D6 (CYP2D6, Homo sapiens, UniProt P10635); enzyme activity, inhibitor, time-dependent inhibition; 50 µM, preincubated with NADPH).
For CNS(=O)(=O)Nc1nccc(Cc2c(C)c3ccc(Oc4ncccc4F)cc3oc2=O)c1F, the IC50 was 597 nM (KMS-34; cell viability; 7 days).
For CCCCN1C(=O)c2cccc3c(NCCCCCCN4CCOCC4)ccc(c23)C1=O, “molar extinction coefficient” read 13900 M⁻¹ cm⁻¹ (DMSO).
Under “molar absorption coefficient”, CCC1=[N+]2N=C(c3ccccc3)C(=O)O[B-]2(c2ccccc2)Oc2cc(N(CC)CC)ccc21 (stereo not shown) is recorded as 49000 M⁻¹ cm⁻¹ (toluene).
O=C([O-])CN1CCN(CC(=O)O)CCN(CC(=O)[O-])CCN(CC(=O)O)CC1.[64Cu+2] — result for “blood elimination half-life”: 0.353 ± 0.035 h (dynamic micro-PET imaging; rat, chronic myocardial infarction, blood; intravenous).

Excerpt of the above:
CC[C@H](C)[C@@H]1NC(=O)[C@H](Cc2ccc(O)cc2)NC(=O)CCCSC[C@@H](C(=O)N(CC(=O)N[C@@H](CC(C)C)C(=O)NCC(N)=O)Cc2ccc(F)cc2)NC(=O)[C@H](CC(N)=O)NC(=O)[C@H](CCC(N)=O)NC1=O gave an AUC(0-t) of 0.088 ng·h/mL (human, plasma; intranasal, 400 µg, single dose).
The dextrorphan formation of CNC(=O)C1CCCN(C(=O)C2CC3CCC2N3C(=O)[C@@H]2C[C@@H](O)CN2C(=O)NCc2cccc(Cl)c2F)C1 (mixture of isomers) is reported as 143 ng/mL (Cytochrome P450 2D6 (CYP2D6, Homo sapiens, UniProt P10635); enzyme activity, inhibitor, time-dependent inhibition; 50 µM, preincubated with NADPH).
For CNS(=O)(=O)Nc1nccc(Cc2c(C)c3ccc(Oc4ncccc4F)cc3oc2=O)c1F, the IC50 was 597 nM (KMS-34; cell viability; 7 days).
